# Measured values collected from several papers.
# Each line is one published result; not all experiments were run side by side.
SMILES,tested on,test,test system,conditions,quantity,value
Cn1cncc1C1=CN(c2ncnc3[nH]cnc23)CCS1,ACHN,,,renal cancer,CC50,> 200 µM
COc1c(C)c2c(c(O)c1C/C=C(\C)CCC(=O)O)C(=O)OC2,ACHN,cell proliferation,kidney cancer,,IC50,1070 nM
CC(C)N1CCC(NC2CCN(c3cccc(-c4cc5cc(F)ccc5[nH]4)c3)CC2)CC1,ACHN,,,,GI50,1780 nM
CC(C)[C@H](C(=O)Nc1ccc(C(=O)NO)cc1)c1ccccc1,human coronavirus OC43,virus-induced cell killing,MRC-5,screen,maximum inhibition,6.61%
COc1cc(CCC[P+](c2ccccc2)(c2ccccc2)c2ccccc2)c(OC)c2c1OCO2.[I-],ACHN,SRB,,,GI50,-5.39 log M
CN1CCN(C2(CNC3CCN(c4cccc(-c5cc6cc(F)ccc6[nH]5)c4)CC3)CCC2)CC1,ACHN,,,,GI50,1730 nM
Nc1ncc(-c2nc(N3CCOCC3)nc(N3CCOCC3)n2)c(C(F)F)n1,ACHN,,,72 h,GI50,54 nM
CCN(CC)c1ccc(C=NNC(=O)CSc2nc3ccccc3c(=O)n2Cc2ccc(S(N)(=O)=O)cc2)c(O)c1,ACHN,NCI five-dose screen,,,CC50,> 100 µM
Cc1cc(N(CCOS(C)(=O)=O)CCOS(C)(=O)=O)ccc1C(=O)O,ACHN,cell growth,,,IC50,18.9 µg/mL
Nc1nc(F)nc2c1ncn2[C@@H]1O[C@H](CO)[C@@H](O)[C@@H]1O,human coronavirus OC43,virus-induced cell killing,MRC-5,maximum over 10 doses,maximum inhibition,0%
COc1c(CCC[P+](c2ccccc2)(c2ccccc2)c2ccccc2)cc2c(c1OC)OCO2.[I-],ACHN,SRB,,,LC50,> -4 log M

# A few entries again:
SMILES,tested on,test,test system,conditions,quantity,value
COc1cc(CCC[P+](c2ccccc2)(c2ccccc2)c2ccccc2)c(OC)c2c1OCO2.[I-],ACHN,SRB,,,GI50,-5.39 log M
